Results gathered from unrelated publications.
Each numbered part is a random draw from the data of one study; scales do not carry over between parts. Changes are numbered by the printed parent chain.

Block 1
Target: RNA binding protein fox-1 homolog 2, RRM domain, GST-SBP tag (RBFOX2, Homo sapiens, UniProt O43251-10, residues 100-194)
Method: RNA Bind-n-Seq
Form: RNA
Medium: in vitro
Concentration: 365 nM
Setting: natural RNA segment, single round, ends assumed
Reference: no-protein control
Direction: higher = stronger binding
Quantity: RBNS enrichment (R)
Constant ends, left off below: GGGAGUUCUACAGUCCGACGAUC … UGGAAUUCUCGGGUGCCAA
Target sequence (chain): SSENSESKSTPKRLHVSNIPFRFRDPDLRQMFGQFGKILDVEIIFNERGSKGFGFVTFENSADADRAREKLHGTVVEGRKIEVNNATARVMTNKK
Oligonucleotide = ACCCCCUGCCUCACAUGGGGAGCACUGUUCAGAGCACACACUGGGGAGUUCUGACUUUGGCCAUUAGAGUGAGUCACAUCCCAGACCUACCAGAGAGCAGAAUGCUUGUG; result = 0.477
Oligonucleotide = UGACAGUGUGUUUUGUAAUCUGUCAAUCAGUGUUGGAGAUAUGCCCAGGCUAUUACAGGCAUAUUAUGGACAAAUAUAAAGGCCAACUAGUGAUCCCAGCCCAAGAGGUU; result = 0.616
Oligonucleotide = UCUGACCUGCACAACCUUUUCCUCAGCCGACUUCUGGGAAGGAGCUGCCUCGUCCUGACCCACGGAAGGUGGCAGAGUGCUCCCUGCCUGGCCCCUGGCCCCUGGCCCCU; result = 0.486
Oligonucleotide = GACCCAUGGCCAUGGAACCCUGAAGAAGCAUGUCUGGCCGCCUCUGAGCUCCUCCCACCCUCCUCCAGGAACCUCCACAUCUCCAAAAAUCUCCCUGUUGACUCAGUGCC; result = 1.94
Oligonucleotide = UCCUCCAGUAUUCCGUCUGUAGCAGGAGCUAGGGCUGCUGCCUCAGCUCCAAGACAAGAAUGAACCUGGCUGUGUCAGUCAUUUUGUCUUUUCCUUUUUUUUUUUUUUUU; result = 0.535
Oligonucleotide = AUGAUGUGACAUAAUAGAUGUGAAUGUUAAUCACUGCUUGACUAUGUUAAUAAAGUUGUUUAACUAUGACGUUGCACUCUUGAUUUUUAAUGGAAAGAAAUUACCUUAUC; result = 0.589
Oligonucleotide = UUCUGGAUGUGUUCUCUUACUCCCUCUUACCACCAUACUUUUUGCUCUCUUCUCCUGCAAGCGUAGUCUUCACAGGGAGUGGCUUCCUGACAUUUUUUUCAGUUAUGUGA; result = 0.769
Oligonucleotide = CCUUCCCAAGUCCAGCCAUGCCCAGAUGCCCGGAGGGAAAACUGACCCCCAGCCAGUAGACAUUGGCUAAGAACACAGAAUCUUCUGACCAAACACGCUUUCAGCAGCUG; result = 0.342

Block 2
Target: ABI1, truncated, D143A, DHFR fusion (Arabidopsis thaliana)
Method: DHFR PCA, deep sequencing
Medium: yeast
Setting: methotrexate growth selection, single substitutions
With: (+)-ABA 58 µM
Reference: wild-type fitted maximum
Direction: higher = stronger binding
Quantity: relative binding score
Parent: PYL1, truncated, DHFR fusion (Arabidopsis thaliana); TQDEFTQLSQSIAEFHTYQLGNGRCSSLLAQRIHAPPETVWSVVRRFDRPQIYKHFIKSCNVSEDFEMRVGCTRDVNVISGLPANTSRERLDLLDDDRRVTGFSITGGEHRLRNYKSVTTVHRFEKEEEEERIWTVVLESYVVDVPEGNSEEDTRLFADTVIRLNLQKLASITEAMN; partner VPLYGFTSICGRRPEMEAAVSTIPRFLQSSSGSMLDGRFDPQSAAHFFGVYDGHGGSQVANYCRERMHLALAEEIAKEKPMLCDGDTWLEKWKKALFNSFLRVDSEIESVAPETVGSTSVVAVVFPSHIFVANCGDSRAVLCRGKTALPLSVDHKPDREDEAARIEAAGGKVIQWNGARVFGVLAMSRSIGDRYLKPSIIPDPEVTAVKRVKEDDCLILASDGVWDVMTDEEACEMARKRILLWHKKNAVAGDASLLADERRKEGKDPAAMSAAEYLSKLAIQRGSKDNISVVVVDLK
Substitution = E174N; result = 57.4%
Substitution = P50F; result = -9.05%
Substitution = T86D; result = 78.1%
Substitution = T6V; result = 92.5%
Substitution = F56E; result = 10%
Substitution = H34P; result = 78%
Substitution = S171D; result = 86.9%
Substitution = V145G; result = 1.06%
Substitution = I57W; result = 3.69%
Substitution = Q167A; result = 84.5%
Substitution = A175Y; result = 71.9%
Substitution = T173H; result = 39.4%
Substitution = R163T; result = 74.5%

Block 3
Target: Sal-like protein 4, full length isoform B (SALL4, Homo sapiens, UniProt Q9UJQ4-2, residues 1-616)
Method: universal PBM
Form: double-stranded DNA, one strand shown
Medium: in vitro
Concentration: not given
Setting: 8-mer, flanks averaged, mean of replicates
Direction: higher = stronger binding
Quantity: E-score
Oligonucleotide = CGGGGAAG; result = -0.226
Oligonucleotide = AAGTGTTG; result = 0.0425
Oligonucleotide = ACTCGTCG; result = -0.154
Oligonucleotide = ATTGCCGG; result = -0.211
Oligonucleotide = CCAAAATA; result = 0.253
Oligonucleotide = AAACCTCC; result = -0.119
Oligonucleotide = CCACCTGA; result = -0.0258
Oligonucleotide = AGCATACA; result = 0.271
Oligonucleotide = ATGCCATC; result = 0.144
Oligonucleotide = ACACGTAA; result = 0.234
Oligonucleotide = CTACCGGC; result = -0.168
Oligonucleotide = GGTGTCGA; result = -0.195
Oligonucleotide = CCTTTCCG; result = -0.219
Oligonucleotide = GAGTTTGC; result = -0.152
Oligonucleotide = AACCAGAA; result = 0.0632
Oligonucleotide = ACGGTTAT; result = 0.141
Oligonucleotide = AGTTATGG; result = 0.332
Oligonucleotide = AACGCCTT; result = 0.0639
Oligonucleotide = GCTTTTGA; result = -0.0968
Oligonucleotide = CCAGCTGC; result = -0.354
Oligonucleotide = ACTCCGAG; result = -0.136
Oligonucleotide = TGCGGCAA; result = -0.0108
Oligonucleotide = CGAAACTC; result = -0.171
Oligonucleotide = CAAGCCGC; result = -0.331
Oligonucleotide = AATCCCTG; result = -0.143

Block 4
Target: Ras GTPase-activating protein-binding protein 1, C-terminal RGG region (G3BP1, Homo sapiens, UniProt Q13283)
Sequence of UniProt Q13283 (whole entry, looked up): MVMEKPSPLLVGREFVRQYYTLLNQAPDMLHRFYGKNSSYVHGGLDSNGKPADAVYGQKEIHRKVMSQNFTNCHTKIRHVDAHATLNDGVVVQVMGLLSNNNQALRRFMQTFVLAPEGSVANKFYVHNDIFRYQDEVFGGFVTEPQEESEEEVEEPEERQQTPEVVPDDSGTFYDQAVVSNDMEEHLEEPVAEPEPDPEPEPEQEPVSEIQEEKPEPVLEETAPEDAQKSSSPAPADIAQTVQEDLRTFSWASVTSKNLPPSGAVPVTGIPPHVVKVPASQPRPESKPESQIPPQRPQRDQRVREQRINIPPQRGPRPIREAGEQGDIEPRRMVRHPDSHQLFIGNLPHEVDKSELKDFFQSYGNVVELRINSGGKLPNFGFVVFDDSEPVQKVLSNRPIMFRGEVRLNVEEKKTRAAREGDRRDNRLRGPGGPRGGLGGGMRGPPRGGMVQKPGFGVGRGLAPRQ
Method: RNA Bind-n-Seq
Form: RNA
Medium: in vitro
Concentration: 1 µM
Setting: whole 134-nt RNA, ends assumed
With: 150 mM KCl
Reference: input library
Direction: higher = stronger binding
Quantity: log2 enrichment
Constant ends, left off below: GGGAGUUCUACAGUCCGACGAUC … UGGAAUUCUCGGGUGUCAAGG
Oligonucleotide = CCUCAAGUCCUGUGCUACACAUCGUAUGUACCGAAUCGGGAGGGUGGGUGGGAAAGUAUUAUGUUACGCCGUUCGGAUCUGCACUUCCAG; result = 0.628
Oligonucleotide = UAACUUUAGAAGAGGAUCUGAUGGAUAUGGCAGUGGACGUGGAUUUGGGGAUGGCUAUAAUGGGUAUGGAGGAGGACCUGGAGGUGGCAA; result = -1.47
Oligonucleotide = AAGUCCUGUGCUACACAUCGUAUGUACCGAAUCGGGUGGGAAAGGGUUUUUUUGGGAAAGUAUUAUGUUACGCCGUUCGGAUCUGCACUU; result = 0.701
Oligonucleotide = UGCCCCUGGUGGCAUGCGGGGAGGAAGAGGUGGCCUCAUGGAUCGUGGUGGUCCCGGUGGAAUGUUCAGAGGUGGCCGUGGUGGAGACAG; result = 2.01
Oligonucleotide = UGGCCCUGGUGGCAGGCGGGGAGGAAGAGGUGGCCUCAUGGAUCGUGGUGGUCCCGGUGGAAUGUUCAGAGGUGGCCGUGGUGGAGACAG; result = 2
Oligonucleotide = CCUCAAGUCCUGUGCUACACAUCGUAUGUACCGAAUCGGAGGAGGUUUUUGGAAAGUAUUAUGUUACGCCGUUCGGAUCUGCACUUCCAG; result = -0.645
Oligonucleotide = AAGUCCUGUGCUACACAUCGUAUGUACCGAAUCGGGUGGGAAAGGGAAAAAAAGGGAAAGUAUUAUGUUACGCCGUUCGGAUCUGCACUU; result = -0.251
Oligonucleotide = GCAGGAAGUAAAAACAAAUGGAAAUGCUUCGGAUAGUGGCAGGGGUGGGGGUUGCUAAGGAAAGGGUGGGAUGGGAGUGGGUAAAGAGUC; result = 1.67
Oligonucleotide = UCCCUGUCCAAGCUGAGCGCCCUCAACGAGAGCCUUGCUCAGGACAAGUUGGAUCUGAACUGCCUUGUCACCCAGGUACACUGUGCACCU; result = 1.22

Block 5
Target: CCND2, cyclin fold, Cln2 fusion (human)
Method: yeast growth competition, sequencing
Medium: yeast
Setting: weak parent motif
Reference: not given
Direction: higher = stronger binding
Quantity: normalised enrichment score
Parent: REV3L docking peptide (human); PPVIIKYIIINRF
Substitution = PPVIIKAIIINRF [Y7A]; result = -0.067
Substitution = PPVIIAYIIINRF [K6A]; result = 0.0542
Substitution = PPVAIKYIIINRF [I4A]; result = -0.264
Substitution = APVIIKYIIINRF [P1A]; result = -0.167
Substitution = PAVIIKYIIINRF [P2A]; result = -0.667
Substitution = PPVIIKYIIINAF [R12A]; result = -0.0899

Further values, each from its own experiment
Molecule = PhoQ, residues 284 288 289 292 302 303 TTCLQL; target = PhoP, residues 12 14 15 18 19 LHHVQ (Escherichia coli, UniProt P23836); assay = Sort-seq, item: YFP reporter; test system = E. coli; setting = PhoQ-PhoP variant library, with: 10 µM Mg2+; how to read = reference: high Mg2+ state, higher = stronger signaling; quantity = fold induction; result = 5.95

For quick reference, copied from above (block 4):
Oligonucleotide = UAACUUUAGAAGAGGAUCUGAUGGAUAUGGCAGUGGACGUGGAUUUGGGGAUGGCUAUAAUGGGUAUGGAGGAGGACCUGGAGGUGGCAA; result = -1.47
Oligonucleotide = UGCCCCUGGUGGCAUGCGGGGAGGAAGAGGUGGCCUCAUGGAUCGUGGUGGUCCCGGUGGAAUGUUCAGAGGUGGCCGUGGUGGAGACAG; result = 2.01
Oligonucleotide = CCUCAAGUCCUGUGCUACACAUCGUAUGUACCGAAUCGGAGGAGGUUUUUGGAAAGUAUUAUGUUACGCCGUUCGGAUCUGCACUUCCAG; result = -0.645
Oligonucleotide = AAGUCCUGUGCUACACAUCGUAUGUACCGAAUCGGGUGGGAAAGGGUUUUUUUGGGAAAGUAUUAUGUUACGCCGUUCGGAUCUGCACUU; result = 0.701
Oligonucleotide = CCUCAAGUCCUGUGCUACACAUCGUAUGUACCGAAUCGGGAGGGUGGGUGGGAAAGUAUUAUGUUACGCCGUUCGGAUCUGCACUUCCAG; result = 0.628
Oligonucleotide = AAGUCCUGUGCUACACAUCGUAUGUACCGAAUCGGGUGGGAAAGGGAAAAAAAGGGAAAGUAUUAUGUUACGCCGUUCGGAUCUGCACUU; result = -0.251
Oligonucleotide = UCCCUGUCCAAGCUGAGCGCCCUCAACGAGAGCCUUGCUCAGGACAAGUUGGAUCUGAACUGCCUUGUCACCCAGGUACACUGUGCACCU; result = 1.22
Oligonucleotide = GCAGGAAGUAAAAACAAAUGGAAAUGCUUCGGAUAGUGGCAGGGGUGGGGGUUGCUAAGGAAAGGGUGGGAUGGGAGUGGGUAAAGAGUC; result = 1.67
